Measured values collected from several papers.
Compare with care: the assays were run in different laboratories. ± gives the spread as reported.

SMILES	assay	test system	conditions	scale	endpoint	result
Cc1cnc(C(=O)N[C@@H](Cc2cn(Cc3ccccc3)cn2)C(=O)N2CCC[C@H]2C(N)=O)cn1	–	Swiss albino mice	iv, 10 µmol/kg, together with: pentobarbital 50 mg/kg ip	–	sleeping time	51.1 ± 8.5 min
COc1c2c(cc3oc(CO)cc(=O)c13)O[C@H](C(C)(C)O)C2	rectal temperature	rat, 2,4-dinitrophenol-induced pyrexia	oral, dose not given	–	onset of antipyretic effect	0.5 h
Cc1cc(N)c2ccccc2[n+]1CCCCCCCCCCCCCC[n+]1c(C)cc(N)c2ccccc21	–	NOD/SCID mice, SK-N-AS xenograft, tumour cells in methylcellulose	2.5 mg/kg, 18 days	–	colony growth ex vivo	no effect
COc1ccc2c(c1OC)C(C(Cl)(Cl)Cl)N1CCc3cc4c(cc3C1=C2)OCO4 (stereo not shown)	–	rat, STZ-induced diabetic, serum	oral, 12 mg/kg, day 28	–	AST activity	62.1 ± 2.01 U/L
COc1ccc(C2CC(c3ccc(C)cc3)=Nc3ccccc3S2)cc1 (stereo not shown)	–	Wistar rat, STZ-induced diabetes	oral, 10 mg/kg once daily, day 14	–	body weight	186 ± 4.19 g
CSc1cc(C)[nH]c(=O)c1CN1CCc2c(Cl)c3c(c(C)c2C1=O)OC(C)(C1CCC(N(C)C)CC1)O3 (stereo not shown)	–	mouse KARPAS-422 xenograft, tumour	oral, 25 mg/kg once daily, day 12	–	H3K27me3 reduction	89%
Cc1cc(=O)[nH]c2ccc(OCCCC(=O)N3CCOCC3)cc12	–	rat, isolated spontaneously beating atria	100 µM	relative to: baseline	contraction force increase	19 ± 4%
CN(C)C(=O)c1ccnc(N2Cc3cn(Cc4ccc(F)cc4F)nc3C2)n1	synaptic transmission	mouse, hippocampus Schaffer collaterals	oral, 5 mg/kg, 1 h before recording	–	fEPSP peak amplitude	no effect
Cc1ncc(Cl)cc1NC(=O)c1cc(-c2ccc(F)c(O)c2)on1	membrane potential, rhodamine uptake	isolated mouse liver mitochondria	–	–	EC50	> 100000 nM
COc1ccc(C2CC(c3ccc(C)cc3)=Nc3ccccc3S2)cc1OC (stereo not shown)	–	Wistar rat, STZ-induced diabetes	oral, 10 mg/kg once daily, day 7	–	body weight	185 ± 4.39 g
C=C(c1ncc(C(=O)O)cn1)c1cc2c(cc1C)C(C)(C)CCC2(C)C	RNA sequencing, measured: Epha3 mRNA	rat, brain	dose not given, 24 h, single dose	relative to: vehicle	log2 fold change	0.34
O=C1NCC(c2ccc(F)c(F)c2)C1C(=O)Nc1ccccc1F (stereo not shown)	–	whole plants	concentration not given	–	herbicidal activity	active
CC/C=C\C/C=C\C/C=C\C/C=C\C/C=C\CCCCOC(CC)C(=O)O (stereo not shown)	–	APOE*3Leiden.CETP mice, high-fat/cholesterol diet	dose not given, 20 weeks	relative to: control	hepatic HETE isomers	decreased
C[N+](C)(CF)CCO	–	human platelet-rich plasma	20 µM, together with: ADP 2 µM	–	platelet aggregation	no effect
CC(C)CN(CC(C)C)C(=O)/C=C/C=C/c1ccc2c(c1)OCO2	–	C57BL/6N mice	ip, 30 mg/kg, 30 min before PTZ, together with: PTZ iv infusion	–	PTZ seizure threshold	55.8 ± 2.8 mg/kg PTZ
CCCCCC(O)C=CC1OC2OC(C2F)C1CC=CCCCC(=O)O (stereo not shown)	platelet aggregation, agonist, light transmission aggregometry	human platelet-rich plasma	–	–	EC50	1580 nM
CN1Cc2c(Cl)cc(Cl)cc2C(c2cccc(S(=O)(=O)NCCOCCOCCOCCNC(=O)C(O)C(O)C(=O)NCCOCCOCCOCCNS(=O)(=O)c3cccc(C4CN(C)Cc5c(Cl)cc(Cl)cc54)c3)c2)C1 (stereo not shown)	–	Sprague Dawley rats	oral, 3 mg/kg, 16 h	higher = more watery	stool form score	2
CC(=O)[C@]12NC(C)(C)C[C@@]1(C)C(=O)C1=C2c2c(c3c4n2C(C)(C)CC2=C4[C@@]4(CC(C)(C)N[C@@](C)(C4)C2=O)CC3(C)C)C(=O)C(C)(C)N1 (racemic)	acetic acid-induced writhing	mouse	intraperitoneal, 0.04 mg/kg, 0.5 h, writhes counted over 30 min	–	inhibition	37.2 ± 0.8%
CC(C)[C@H](NC(=O)CN)C(=O)N[C@@H](CCCCN)C(=O)NCC(=O)N[C@@H](CC(=O)O)C(=O)N[C@@H](CCCCN)C(=O)NCC(=O)N[C@@H](CC(N)=O)C(=O)N1CCC[C@H]1C(=O)NCC(=O)N[C@@H](Cc1c[nH]c2ccccc12)C(=O)N1CCC[C@H]1C(=O)NCC(=O)N[C@@H](C)C(=O)N1CCC[C@H]1C(=O)O	–	C6 glioma, rat	100 µg/mL coating, peptide-coated plates	–	spreading cells	82%
O=C(NC1CCCCC1)C(c1ccccc1)N(C(=O)CCl)c1ccc(F)cc1 (racemic)	competitive ABPP	MDA-MB-435 soluble proteome	5 µM, together with: CA-Rh probe	–	off-target molecular weight	38 kDa

SMILES	assay	test system	conditions	scale	endpoint	result
COC(=O)N1c2ccc3c(nc(Cc4ccccc4)n3[C@@H]3CCC[C@@H](C(=O)O)C3)c2CC[C@@H]1C	–	mouse, breast cancer PDX	oral, 50 mg/kg, 4 days/week, 45 days	–	responding ER+ AR-low xenografts	0%
CC1OC(OC2C(c3c(O)cc(O)c4c(=O)cc(-c5ccc(O)cc5)oc34)OC(CO)C(O)C2O)C(O)C(O)C1O (stereo not shown)	–	–	–	–	ABTS scavenging, TEAC	525 ± 5.82 µM TE/mM
Cc1nc(C)c(C=[N+]([O-])C(C)(C)C)nc1C	Western blot, measured: MEF2D	mouse, MPTP model, substantia nigra nuclei	90 mg/kg	–	protein level increase	84.8%
O=C(O)c1ccc(/C=C2\SC(=S)N(Cc3cccc(C(F)(F)F)c3)C2=O)cc1	–	mouse, high-fat diet, adipose tissue	2.5 mg/kg once daily, 6 weeks	–	caspase-1 cleavage	decreased
C=C(c1ccc(C(=O)O)c(F)c1)c1cc2c(cc1C)C(C)(C)C=CC2(C)C	RNA sequencing, measured: Acot1 mRNA	rat, brain	dose not given, 24 h, single dose	relative to: vehicle	log2 fold change	-1.14
O=C(O)[C@H]1O[C@@H](Oc2c(-c3ccc(O)c(O)c3)oc3cc(O)cc(O)c3c2=O)[C@H](O)[C@@H](O)[C@@H]1O	–	–	100 µg/mL	–	ABTS radical scavenging	78 ± 2.8%
O=S(=O)(c1ccccc1)N(CCc1nnc(S)o1)c1ccc(Cl)cc1	analgesic activity, tail flick test	rat	200 mg/kg	–	protection	121%
CCCCCCOC(=O)Cc1c(C)n(C(=O)c2ccc(Cl)cc2)c2ccc(OC)cc12	hot plate test	BALB/c mice	100 mg/kg, 60 min	–	latency of nociceptive response	16.4 ± 0.66 s
CC(=O)N[C@@H](CC(N)=O)C(=O)NCC(=O)N[C@@H](C)C(=O)N[C@@H](C)C(N)=O	1H NMR	sodium phosphate buffer 50 mM	pH 7.4, 55 °C	–	rate constant succinimide to β-Asp	5.21 h⁻¹
C=CC(=O)N1C[C@H](C)N(c2nc(OC[C@@]34CCCN3C[C@H](F)C4)nc3c(F)c(-c4ccc(F)c5sc(N)c(C#N)c45)c(C(F)(F)F)cc23)C[C@H]1C	tumour growth	mouse, MIA PaCa-2 xenograft	oral, daily, 28 days	–	ED90	1.8 mg/kg
Cn1cnnc1Sc1c2c(c(C#N)c3nc4ccccc4n13)CCCC2	flow chamber on collagen	mouse blood	5 µM, shear 50 dyne/cm2	–	platelet thrombus coverage and volume	decreased
COc1ccc2c(c1)c(CC(=O)OCC(=O)c1ccccc1)c(C)n2C(=O)c1ccc(Cl)cc1	hot plate test	BALB/c mice	100 mg/kg, 30 min	–	latency of nociceptive response	14.6 ± 0.92 s
Cc1cc(O)c(C=O)c2c1C(=O)Oc1c(CO)c(O)c3c(c1O2)C(O)OC3=O (stereo not shown)	–	rat male, streptozotocin diabetic	5 mg/kg, 5 weeks	–	body weight	162 ± 7.4 g
CSCC[C@@H]1NC(=O)[C@H](CCCCN)NC(=O)[C@H]([C@@H](C)O)NC(=O)[C@H](CCCCN)NC(=O)[C@H](CC(C)C)NC(=O)[C@H](CCCCN)NC(=O)[C@H](CCCNC(=N)N)NC(=O)[C@@H]2CSSC[C@@H]3NC(=O)[C@@H]4CCCN4C(=O)[C@H](C(C)C)NC(=O)[C@H](CCC(N)=O)NC(=O)[C@H](CCC(N)=O)NC(=O)CNC(=O)[C@H](CC(C)C)NC(=O)[C@@H]4CSSC[C@H](NC(=O)[C@H]([C@@H](C)O)NC(=O)[C@H](C)NC(=O)[C@H](CSSC[C@@H](C(=O)N[C@@H](CO)C(=O)N[C@@H](CCCNC(=N)N)C(=O)N[C@H](C(N)=O)[C@@H](C)O)NC(=O)[C@@H]5CCCN5C(=O)[C@H](CC(N)=O)NC1=O)NC(=O)[C@@H]1CCCN1C(=O)[C@H](CC(=O)O)NC(=O)[C@H](CSSC[C@H](NC(=O)[C@H](CCCNC(=N)N)NC(=O)[C@H](CCCNC(=N)N)NC(=O)[C@H](CCCCN)NC(=O)[C@@H](N)CCCCN)C(=O)N[C@@H](C(C)C)C(=O)N[C@@H](CCCNC(=N)N)C(=O)N[C@@H](CC(C)C)C(=O)N[C@@H](Cc1c[nH]cn1)C(=O)N[C@@H](CCC(=O)O)C(=O)N[C@@H](CO)C(=O)N4)NC3=O)C(=O)N[C@@H](Cc1ccc(O)cc1)C(=O)N[C@H]1CSSC[C@H](NC(=O)[C@H](Cc3ccccc3)NC(=O)[C@H](C)NC(=O)[C@H](CC(N)=O)NC(=O)[C@H](Cc3ccccc3)NC(=O)[C@H](Cc3ccccc3)NC(=O)[C@H](CCCNC(=N)N)NC1=O)C(=O)N[C@@H](Cc1ccc(O)cc1)C(=O)N2	–	Long-Evans rat, male	intracerebroventricular, 1.0 nmol, 5 days	–	body weight change	41.1 ± 6.8 g
Nn1c(S)nnc1CCN(c1ccc(Cl)cc1)S(=O)(=O)c1ccccc1	analgesia	rat tail flick radiant heat	200 mg/kg	–	protection	96.5%
CC(C)c1cnc(-c2cc(Cl)ccc2F)cc1Nc1ccncc1C(=O)NC(CO)CO	SMAD2 phosphorylation	mouse, 4T1 tumour, tumour	30 mg/kg twice daily then once, 24 h, normalized	–	inhibition	15%
CC12CC(O)C3CC1(OC1OC(CO)C(O)C(O)C1O)C3(COC(=O)c1ccccc1)C(=O)O2 (stereo not shown)	–	mice, reserpine-induced depression	7 mg/kg, 7 days, within 15 s	–	out-circle rate	40%
CCc1nc(-c2ccc(-c3ccc(CCC(N)(CO)CO)cc3)cc2)co1	phosphorylation	human whole blood	60 min, 37 °C, up to 100 µM	–	Km	81.3 ± 14.8 µM
C[C@H]1CN(C(=O)c2cn(-c3ccnc(N)n3)c3cc(C#CC4(O)CCCCC4)ccc23)CCN1	–	B16-BL6, mouse, lung metastasis model	dose not given	–	inhibition of lung metastasis	> 90%
CCCn1cnc(C[C@H](NC(=O)c2nccnc2N)C(=O)N2CCC[C@H]2C(N)=O)c1	–	Swiss albino mice	iv, 10 µmol/kg, together with: pentobarbital 50 mg/kg ip	–	sleeping time	85.1 ± 5.5 min

For quick reference, copied from above:
SMILES	assay	test system	conditions	scale	endpoint	result
CCCn1cnc(C[C@H](NC(=O)c2nccnc2N)C(=O)N2CCC[C@H]2C(N)=O)c1	–	Swiss albino mice	iv, 10 µmol/kg, together with: pentobarbital 50 mg/kg ip	–	sleeping time	85.1 ± 5.5 min
CCCCCC(O)C=CC1OC2OC(C2F)C1CC=CCCCC(=O)O (stereo not shown)	platelet aggregation, agonist, light transmission aggregometry	human platelet-rich plasma	–	–	EC50	1580 nM
CSc1cc(C)[nH]c(=O)c1CN1CCc2c(Cl)c3c(c(C)c2C1=O)OC(C)(C1CCC(N(C)C)CC1)O3 (stereo not shown)	–	mouse KARPAS-422 xenograft, tumour	oral, 25 mg/kg once daily, day 12	–	H3K27me3 reduction	89%
O=C(NC1CCCCC1)C(c1ccccc1)N(C(=O)CCl)c1ccc(F)cc1 (racemic)	competitive ABPP	MDA-MB-435 soluble proteome	5 µM, together with: CA-Rh probe	–	off-target molecular weight	38 kDa
O=C1NCC(c2ccc(F)c(F)c2)C1C(=O)Nc1ccccc1F (stereo not shown)	–	whole plants	concentration not given	–	herbicidal activity	active
